Results from different studies.
A part holds a random share of what one study measured.

Sample 1 — observed: enzyme activity; action: inhibitor; concentration: 10 µM; endpoint: inhibition
Target: Calcium/calmodulin-dependent protein kinase type II subunit alpha (CAMK2A, Homo sapiens, UniProt Q9UQM7)
O=C1c2ccccc2C(=O)c2c1ccc(O)c2O: 8%
COc1cc2c(c(OC)c1OC)-c1c3cc4c(c1OC[C@@H](C)[C@@](C)(O)C(=O)O[C@@H]2[C@@](C)(O)[C@@H](C)C3)OCO4: -3%
O=c1cc(-c2ccccc2)c2c(O)cc(O)cc2o1: 2%

Sample 2 — technique: competitive binding panel; concentration: 1 µM; baseline: vehicle; endpoint: remaining binding
Structure (SMILES): Cc1ccc(NC(=O)c2ccnc(C(F)(F)F)c2)cc1-c1cc(OCCO)nc(N2CCOCC2)c1
CSNK2A2 (Homo sapiens, UniProt P19784): 71%
ABL2 (Homo sapiens, UniProt P42684): 99%
MYLK (Homo sapiens, UniProt Q15746): 100%

Sample 3 — technique: phase 2a trial; species: idiopathic pulmonary fibrosis patients; endpoint: patients with increased interferon-gamma
Structure (SMILES): CC(C)n1cnc(-c2ccc(F)cc2)c1-c1ncc(C(=O)Nc2ccc(N3CCN(C)CC3)cc2)[nH]1
60 mg once daily, grade 5: 0%
all dose arms pooled, grade 3: 0%
30 mg once daily, grade 4: 0%

Sample 4 — species: human; sample: microsomes or S9; concentration: 2 µM; time: 0.5 h; endpoint: remaining compound
CC(C(=O)O)n1ccc2c(cnc3ncnn32)c1=O (stereo not drawn): 75.3%
O=C(Cc1cccs1)NC1(C(=O)NC2CCCCC2)CCCCC1: 2.55%
CCc1ccc(-n2c3nc(=O)[nH]c(=O)c-3cc3c(Cl)cccc32)cc1: 84.7%

Sample 5 — concentration: 1 µM; endpoint: remaining binding
SMILES: CC(=O)N1CCC(c2ccc(C(=O)NC(=N)N)cc2C(F)(F)F)CC1
STK32B (Homo sapiens, UniProt Q9NY57); cell-free assay, competition with immobilised ligand: 89%
MARK1 (Homo sapiens, UniProt Q9P0L2); cell-free assay, competition with immobilised ligand: 100%
FGR (Homo sapiens, UniProt P09769); cell-free assay, competition with immobilised ligand: 91%
NUAK1 (Homo sapiens, UniProt O60285); cell-free assay, competition with immobilised ligand: 100%
EPHA4 (Homo sapiens, UniProt P54764); cell-free assay, competition with immobilised ligand: 100%
CDC42BPG (Homo sapiens, UniProt Q6DT37); competition binding: 92%
eIF-2-alpha kinase GCN2, C-terminal kinase domain (EIF2AK4, Homo sapiens, UniProt Q9P2K8, S808G); cell-free assay, competition with immobilised ligand: 73%
FGFR3 (Homo sapiens, UniProt P22607); cell-free assay, competition with immobilised ligand: 100%
TGFBR1 (Homo sapiens, UniProt P36897); cell-free assay, competition with immobilised ligand: 100%
PDGFRA (Homo sapiens, UniProt P16234); cell-free assay, competition with immobilised ligand: 100%
CDKL3 (Homo sapiens, UniProt Q8IVW4); cell-free assay, competition with immobilised ligand: 100%
PRKCE (Homo sapiens, UniProt Q02156); cell-free assay, competition with immobilised ligand: 100%
BRSK2 (Homo sapiens, UniProt Q8IWQ3); cell-free assay, competition with immobilised ligand: 100%
Ribosomal protein S6 kinase alpha-6, N-terminal kinase domain (RPS6KA6, Homo sapiens, UniProt Q9UK32); cell-free assay, competition with immobilised ligand: 96%
LRRK2 (Homo sapiens, UniProt Q5S007); cell-free assay, competition with immobilised ligand: 100%

Single results of other studies
CCC1(C)CC(=O)NC1=O (stereo not drawn) — infection rate (Plasmodium berghei; inhibitor; Huh-7, liver stage; 10 µM, 24 h; baseline: untreated control): 88.2%
O=C1CCC(N2Cc3cc(C4CCN(Cc5ccccc5)CC4)ccc3C2=O)C(=O)N1 (stereo not drawn) — AUC(0-inf) (mouse, ICR, male, plasma; intravenous, 1.0 mg/kg): 308 ng·h/mL
COc1c(C)c2c(c(O)c1C/C=C(\C)CCC(=O)O)C(=O)OC2 — infection rate (Plasmodium berghei; inhibitor; Huh-7, liver stage; 10 µM, 24 h; baseline: untreated control): 22.5%

Some of these lines once more (sample 4):
CC(C(=O)O)n1ccc2c(cnc3ncnn32)c1=O (stereo not drawn): 75.3%
O=C(Cc1cccs1)NC1(C(=O)NC2CCCCC2)CCCCC1: 2.55%
CCc1ccc(-n2c3nc(=O)[nH]c(=O)c-3cc3c(Cl)cccc32)cc1: 84.7%
